{"data": "Measurements of several laboratories", "note": "Lines come from different studies, so protocols differ. Numbers after ± are the reported error."}
{"SMILES": "Cn1c(=O)oc2ccc(-c3ccc(CC(C#N)NC(=O)C4CNCCCO4)c(F)c3)cc21 (centres unmarked)", "system": "human, plasma", "setting": "40 mg once daily, day 28, geometric mean", "Cmax": "380 ng/mL"}
{"SMILES": "NC(=O)C1(NC(=O)[C@H](Cc2ccccc2)NC(=O)[C@@H](Cc2c[nH]c3ccccc23)NC(=O)[C@@H](Cc2csc3ccccc23)NC(=O)C2CCNCC2)CCNCC1", "system": "human, diabetic gastroparesis, plasma", "setting": "subcutaneous, 100 µg single dose", "Cmax": "~4 ng/mL"}
{"SMILES": "CC(=O)N[C@H](CC(=O)O)C(=O)N[C@H](Cc1c[nH]c2ccccc12)C(=O)N[C@H](Cc1ccccc1)C(=O)N[C@H](CCCCN)C(=O)N[C@H](C)C(=O)N[C@H](Cc1ccccc1)C(=O)N[C@H](Cc1ccc(O)cc1)C(=O)N[C@H](CC(=O)O)C(=O)N[C@H](CCCCN)C(=O)N[C@@H](C(=O)N[C@H](C)C(=O)N[C@H](CCC(=O)O)C(=O)N[C@H](CCCCN)C(=O)N[C@H](Cc1ccccc1)C(=O)N[C@H](CCCCN)C(=O)N[C@H](CCC(=O)O)C(=O)N[C@H](C)C(=O)N[C@H](Cc1ccccc1)C(N)=O)C(C)C", "system": "human, statin-treated high-risk CHD, male, plasma", "setting": "oral, 500 mg daily, day 13, 0 to 8 h, mean, undetectable set to 0", "Cmax": "33.6 ng/mL"}
{"SMILES": "CN1CCC[C@]1(C)/C=C/S(=O)(=O)NC(=O)Nc1c2c(cc3c1CCC3)CCC2", "system": "human, plasma", "setting": "oral, 12.5 to 100 mg twice daily, 14 days, second dose at steady state", "Cmax": "1800 to 16100 ng/mL"}
{"SMILES": "CC[C@H](C)[C@H](NC(=O)[C@H](CC(C)C)NC(=O)[C@H](Cc1c[nH]c2ccccc12)NC(=O)[C@H](C)NC(=O)[C@@H](NC(=O)[C@H](Cc1ccccc1)NC(=O)[C@H](CC(=O)O)NC(=O)[C@H](CCCNC(=N)N)NC(=O)[C@H](C)NC(=O)[C@H](C)NC(=O)[C@H](CC(C)C)NC(=O)[C@H](C)NC(=O)[C@H](CC(=O)O)NC(=O)[C@H](CC(C)C)NC(=O)[C@@H](NC(=O)[C@@H](NC(=O)[C@H](C)NC(=O)[C@H](CC(C)C)NC(=O)[C@H](CCC(=O)O)NC(=O)[C@H](CO)NC(=O)[C@H](CO)NC(=O)[C@H](Cc1ccccc1)NC(=O)[C@@H](NC(=O)CNC(=O)[C@H](CCC(=O)O)NC(=O)CNC(=O)[C@@H](N)Cc1cnc[nH]1)[C@@H](C)O)[C@@H](C)O)[C@@H](C)CC)[C@@H](C)CC)C(=O)N[C@@H](C)C(=O)N[C@H](C(=O)N[C@@H](CCCCN)C(=O)N[C@H](C(=O)N[C@H](C(=O)N[C@@H](CC(=O)O)C(=O)N[C@@H](CCCCN)C(=O)N[C@@H](CCCCN)C(=O)N[C@@H](CCCCN)C(=O)N[C@@H](CCCCN)C(=O)N[C@@H](CCCCN)C(=O)N[C@@H](CCCCN)C(N)=O)[C@@H](C)O)[C@@H](C)CC)[C@@H](C)O", "system": "healthy humans, plasma", "setting": "subcutaneous, 5 mg once weekly, 6 doses, day 36, geometric mean", "Cmax": "2.83 nM"}
{"SMILES": "O=C(CCc1ccc(CNC(C(=O)OC2CCCC2)C2CCCCC2)cn1)NO (centres unmarked)", "system": "human, plasma", "setting": "oral, 40 mg once daily, day 1, geometric mean", "Cmax": "166 ng/mL"}
{"SMILES": "CC(C)(O)c1ncc([S@](N)(=O)=NC(=O)Nc2c3c(cc4c2CCC4)CCC3)s1", "system": "healthy human", "setting": "oral, 100 mg once daily, day 1, spray-dried dispersion, geometric mean", "Cmax": "10700 ng/mL"}
{"SMILES": "CC(=O)Nc1ccc(C(N)=O)c(F)c1", "test": "HPLC-MS/MS", "system": "human, male, plasma", "setting": "25 mg, geometric mean, 1", "Cmax": "10.2 ng/mL"}
{"SMILES": "O=C(CCc1ccc(CNC(C(=O)O)C2CCCCC2)cn1)NO (centres unmarked)", "system": "human, plasma", "setting": "oral, 40 mg once daily, day 1, geometric mean", "Cmax": "151 ng/mL"}
{"SMILES": "CCc1c2c(nc3ccc(O)cc13)-c1cc3c(c(=O)n1C2)COC(=O)[C@]3(O)CC", "system": "human patients, plasma", "setting": "intravenous, 42 mg/m^2 of parent drug", "Cmax": "109 ng/mL"}
{"SMILES": "CC[C@H](C)[C@H](NC(=O)[C@H](CC(C)C)NC(=O)[C@H](Cc1c[nH]c2ccccc12)NC(=O)[C@H](C)NC(=O)[C@@H](NC(=O)[C@H](Cc1ccccc1)NC(=O)[C@H](CC(=O)O)NC(=O)[C@H](CCCNC(=N)N)NC(=O)[C@H](C)NC(=O)[C@H](C)NC(=O)[C@H](CC(C)C)NC(=O)[C@H](C)NC(=O)[C@H](CC(=O)O)NC(=O)[C@H](CC(C)C)NC(=O)[C@@H](NC(=O)[C@@H](NC(=O)[C@H](C)NC(=O)[C@H](CC(C)C)NC(=O)[C@H](CCC(=O)O)NC(=O)[C@H](CO)NC(=O)[C@H](CO)NC(=O)[C@H](Cc1ccccc1)NC(=O)[C@@H](NC(=O)CNC(=O)[C@H](CCC(=O)O)NC(=O)CNC(=O)[C@@H](N)Cc1c[nH]cn1)[C@@H](C)O)[C@@H](C)O)[C@@H](C)CC)[C@@H](C)CC)C(=O)N[C@@H](C)C(=O)N[C@H](C(=O)N[C@@H](CCCCN)C(=O)N[C@H](C(=O)N[C@H](C(=O)N[C@@H](CC(=O)O)C(=O)N[C@@H](CCCCN)C(=O)O)[C@@H](C)O)[C@@H](C)CC)[C@@H](C)O", "test": "immunoaffinity LC-MS/MS", "system": "healthy human subjects, plasma", "setting": "intravenous infusion, 1 mg single dose, infused over 15 min", "Cmax": "0.419 nM"}
{"SMILES": "Cc1nc(C)c(C=[N+]([O-])C(C)(C)C)nc1C", "system": "healthy human, both sexes, serum", "setting": "oral, 600 mg twice daily, 7 days", "Cmax": "9580 ng/mL"}
{"SMILES": "CCCOc1ccc(S(N)(=O)=O)cc1-c1nc2c(CCC)nn(C)c2c(=O)[nH]1", "system": "healthy male humans, plasma", "setting": "oral, 200 mg of udenafil", "Cmax": "394 ± 87.7 ng/mL"}
{"SMILES": "CCc1cc(Nc2nc(-c3ccc(-n4cnc(C)c4)c(F)c3)cs2)c(C)cc1C", "system": "human, both sexes, plasma", "setting": "oral, 100 mg once daily, day 14, multiple dose, geometric mean", "Cmax": "409 ng/mL"}
{"SMILES": "CCn1c(=O)n(CCO)c(=O)c2c1nc(/C=C/c1ccc(OC)c(OC)c1)n2C", "system": "healthy humans, plasma", "setting": "oral, 40 mg, together with: rifampin 600 mg/day", "Cmax": "14.1 ng/mL"}
{"SMILES": "CC[C@H](C)[C@H](NC(=O)[C@H](CC(C)C)NC(=O)[C@H](Cc1c[nH]c2ccccc12)NC(=O)[C@H](C)NC(=O)[C@@H](NC(=O)[C@H](Cc1ccccc1)NC(=O)[C@H](CC(=O)O)NC(=O)[C@H](CCCNC(=N)N)NC(=O)[C@H](C)NC(=O)[C@H](C)NC(=O)[C@H](CC(C)C)NC(=O)[C@H](C)NC(=O)[C@H](CC(=O)O)NC(=O)[C@H](CC(C)C)NC(=O)[C@@H](NC(=O)[C@@H](NC(=O)[C@H](C)NC(=O)[C@H](CC(C)C)NC(=O)[C@H](CCC(=O)O)NC(=O)[C@H](CO)NC(=O)[C@H](CO)NC(=O)[C@H](Cc1ccccc1)NC(=O)[C@@H](NC(=O)CNC(=O)[C@H](CCC(=O)O)NC(=O)CNC(=O)[C@@H](N)Cc1c[nH]cn1)[C@@H](C)O)[C@@H](C)O)[C@@H](C)CC)[C@@H](C)CC)C(=O)N[C@@H](C)C(=O)N[C@H](C(=O)N[C@@H](CCCCN)C(=O)N[C@H](C(=O)N[C@H](C(=O)N[C@@H](CC(=O)O)C(=O)N[C@@H](CCCCN)C(=O)N[C@@H](CCCCN)C(=O)O)[C@@H](C)O)[C@@H](C)CC)[C@@H](C)O", "test": "immunoaffinity LC-MS/MS", "system": "healthy human subjects, plasma", "setting": "intravenous infusion, 1 mg single dose, infused over 15 min", "Cmax": "0.446 nM"}
{"SMILES": "[2H]C([2H])([2H])NC(=O)c1ccc(N2C(=S)N(c3ccc(C#N)c(C(F)(F)F)c3)C(=O)C2(C)C)cc1F", "system": "healthy male human, plasma", "setting": "oral, 160 mg, fasted, single dose", "Cmax": "6200 ng/mL"}
{"note": "Repeated from above:"}
{"SMILES": "CC[C@H](C)[C@H](NC(=O)[C@H](CC(C)C)NC(=O)[C@H](Cc1c[nH]c2ccccc12)NC(=O)[C@H](C)NC(=O)[C@@H](NC(=O)[C@H](Cc1ccccc1)NC(=O)[C@H](CC(=O)O)NC(=O)[C@H](CCCNC(=N)N)NC(=O)[C@H](C)NC(=O)[C@H](C)NC(=O)[C@H](CC(C)C)NC(=O)[C@H](C)NC(=O)[C@H](CC(=O)O)NC(=O)[C@H](CC(C)C)NC(=O)[C@@H](NC(=O)[C@@H](NC(=O)[C@H](C)NC(=O)[C@H](CC(C)C)NC(=O)[C@H](CCC(=O)O)NC(=O)[C@H](CO)NC(=O)[C@H](CO)NC(=O)[C@H](Cc1ccccc1)NC(=O)[C@@H](NC(=O)CNC(=O)[C@H](CCC(=O)O)NC(=O)CNC(=O)[C@@H](N)Cc1c[nH]cn1)[C@@H](C)O)[C@@H](C)O)[C@@H](C)CC)[C@@H](C)CC)C(=O)N[C@@H](C)C(=O)N[C@H](C(=O)N[C@@H](CCCCN)C(=O)N[C@H](C(=O)N[C@H](C(=O)N[C@@H](CC(=O)O)C(=O)N[C@@H](CCCCN)C(=O)N[C@@H](CCCCN)C(=O)O)[C@@H](C)O)[C@@H](C)CC)[C@@H](C)O", "test": "immunoaffinity LC-MS/MS", "system": "healthy human subjects, plasma", "setting": "intravenous infusion, 1 mg single dose, infused over 15 min", "Cmax": "0.446 nM"}
{"SMILES": "CC[C@H](C)[C@H](NC(=O)[C@H](CC(C)C)NC(=O)[C@H](Cc1c[nH]c2ccccc12)NC(=O)[C@H](C)NC(=O)[C@@H](NC(=O)[C@H](Cc1ccccc1)NC(=O)[C@H](CC(=O)O)NC(=O)[C@H](CCCNC(=N)N)NC(=O)[C@H](C)NC(=O)[C@H](C)NC(=O)[C@H](CC(C)C)NC(=O)[C@H](C)NC(=O)[C@H](CC(=O)O)NC(=O)[C@H](CC(C)C)NC(=O)[C@@H](NC(=O)[C@@H](NC(=O)[C@H](C)NC(=O)[C@H](CC(C)C)NC(=O)[C@H](CCC(=O)O)NC(=O)[C@H](CO)NC(=O)[C@H](CO)NC(=O)[C@H](Cc1ccccc1)NC(=O)[C@@H](NC(=O)CNC(=O)[C@H](CCC(=O)O)NC(=O)CNC(=O)[C@@H](N)Cc1c[nH]cn1)[C@@H](C)O)[C@@H](C)O)[C@@H](C)CC)[C@@H](C)CC)C(=O)N[C@@H](C)C(=O)N[C@H](C(=O)N[C@@H](CCCCN)C(=O)N[C@H](C(=O)N[C@H](C(=O)N[C@@H](CC(=O)O)C(=O)N[C@@H](CCCCN)C(=O)O)[C@@H](C)O)[C@@H](C)CC)[C@@H](C)O", "test": "immunoaffinity LC-MS/MS", "system": "healthy human subjects, plasma", "setting": "intravenous infusion, 1 mg single dose, infused over 15 min", "Cmax": "0.419 nM"}
